Measured values gathered from unrelated publications.
A part holds a random share of what one study measured.

Series 1
Target: Interferon regulatory factor 5, full length, phosphomimetic (IRF5, Homo sapiens, UniProt Q13568-2, residues 1-514, K96S/S451D/S453D/S456D/S462D)
Method: protein-binding microarray
Form: double-stranded DNA, one strand shown
Sample: in vitro
Concentration: 250 nM
Setting: 60-bp whole probe
Together with: salmon DNA 0.4 mg/ml
Reference: random background probes
Direction: higher = stronger binding
Quantity: log fluorescence
Shared flanks, not repeated: GCCTAGCAC … GTCTTGATTCGCTTGACGCTGCTG
GAAGATATCGGGTTTCGAGACGTGCTA: 3.27 z-score
TTAGATATCTGTCTCGATTAGTGCTAG: 1.3 z-score
TTAGGTATCGGGACTGGATTAGTGCTA: 1.85 z-score
GGCGGTTCCGGTTTCGGGACGTGCTAG: 4.34 z-score
GACGGACTGGGTACCGGGACGTGCTAG: -0.513 z-score
TTAGGACTGGCTTTCGGTTAGTGCTAG: 8.56 z-score
TTTGGTTCCCTTTTCCTTTAGTGCTAG: 0.985 z-score
GACGGAGTGCTTCTCCTGACGTGCTAG: -0.412 z-score
TTAGGTATCGGGTATCCGTTAGTGCTA: 4.26 z-score
GATGAACTGGGGTATCGAGACGTGCTA: 0.4 z-score
TCATCTTTCCATACTGCACTGTGCTAG: 1.31 z-score
GACGGTTTCGGGATTCGGGACGTGCTA: 5.78 z-score
TTAGAACTGAGACTGGATTTGTGCTAG: -0.0747 z-score
TCACCTCAGGGTTTCAGACTGTGCTAG: -0.0826 z-score
GACGGTTCTCTTTTCCTGACGTGCTAG: 0.185 z-score
TAAGATATCGGGTATCGATTAGTGCTA: 5.02 z-score
TCACAAATGCCCTCTCCAACTGTGCTA: -0.172 z-score
TTAGATTTCAGTTTGGATTAGTGCTAG: 2.11 z-score

Series 2
Target: RNA binding protein fox-1 homolog 2, RRM domain, GST-SBP tag (RBFOX2, Homo sapiens, UniProt O43251-10, residues 100-194)
Method: RNA Bind-n-Seq
Form: RNA
Sample: in vitro
Concentration: 365 nM
Setting: natural RNA segment, single round, ends assumed
Reference: no-protein control
Direction: higher = stronger binding
Quantity: RBNS enrichment (R)
Shared flanks, not repeated: GGGAGUUCUACAGUCCGACGAUC … UGGAAUUCUCGGGUGCCAA
Construct (chain): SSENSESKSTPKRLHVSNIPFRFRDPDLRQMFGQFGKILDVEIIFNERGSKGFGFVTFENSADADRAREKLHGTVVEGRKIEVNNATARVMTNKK
AUGCAGCCUUUUCAUUCUUGCCAUUAGGAAAUCUGUGGACUUCUAGCCUGUGUUUUAAACCAGCCAUGUUUCCUUGUAUAUUUCCCUACCCGCUGCCCCACAUACCCAGC: 0.871
UUCUCCAGUCCUACAGAUGAAAGCAAAGUAGGAAAUGAUCAUGGGCUUAUUGGGGCUUUUAGCAUCUCUAGUAAGUAGCAUACAGCUUUGGCUGGCUUUCUAUCCACAAA: 2.92
ACGGGAGCUUAACUUUAUAAGGAAAUGUAUUUUGACACUGAUAUCUUAUUAAAGUAUUCUGAUCCUAUCCUGCUCGUGCCUCUUGUUUUCUGUGCAUUUACCGUGGACUG: 1.17
CAUCAAGUUACGAAGUGAUUAAUUUCCUUCUCAGCAAACCUCCGGGAGGUUCCAGAAUGAGUUCUUCCUGACAGGUUGUCUUCACUGGGAGCGUGGGGCCCCCAGGCCCC: 0.52
GAUCACAAAAACAUGGUGGGUCCAUGGGCAGAGCCCAAGGGAAUUCGGUGUGCACCAGGGUUGACCCCAGAGGAUUGCUGCCCCAUCAGUGCUCCCUCACAUGUCAGUAC: 0.33
UGGAAUUCAGCAGUUUUAUCCUGGCCUUGUACUUGCUUGUAUUGUAAAUGUGGAUUUUGUAGAUGUUAGGGUAUAAGUUGCUGUAAAAUUUGUGUAAAUUUGUAUCCACA: 4.46
CAGUGGGACCACCCUGGGCCUCCUUUCUACCUCCACUCAGCACCCUGUUGGCCAAGGAGAAUUUCUGCGGUGGGAGGCAGUGCUCUGCUAGUCAGGAUUGAUAAACAGCU: 0.46
GUGCCCUCCACCUAGGGAAGCAUGAACCACAGGGUCCCUGAGGGCCUUCGACAAAAGUGUGUAUUUGUCCCGGGGAGGGUAGCAGUGGGCCAUGGGGCUUCUUGUGCCCU: 2.29
AGGUUUUGGAUGUGAAAAAGAGUUUCCAAAAGAAUGGUGUCUGGGAGUUUGAAUGUGAUGAUUAAAAAAAGAGCCAAGGAAAAAGGUAGCUAGAAAAAAAGGUUGGCUCU: 13.8
GGUGUUAACUCUUUCUGCUCCUUGCAUUUUGACAUCCCUGAAGGGGAGCUCUUGGAUAUCAUUGGCCAUGUUUCAAUCGAAUGGAGCCACUGGGCCCCAACACUGGCUUU: 3.05
GUGUUUCCAGGAGAGCUAGCAUGUUUCUACAAGUGUAGGACUGGAUUGUGGAUCUGCUAUCUAACAAUGUCAUGGAAAAGUGGUAUCUUAAAAUUUUAGGACCGAUUUCA: 3.27
GGUCAAUAAGUUGUAAUCUUGAUAGUAAAGGUGGAAAACUUAUUAUAAAUGGAAAGAAAGUUUUAUUUCCUUUUUUGUUUGAUGGGCAGUAUGCCAUAUUAUACCCAAAG: 0.5

Series 3
Target: Sal-like protein 4, full length isoform B (SALL4, Homo sapiens, UniProt Q9UJQ4-2, residues 1-616)
Method: universal PBM
Form: double-stranded DNA, one strand shown
Sample: in vitro
Concentration: not given
Setting: 8-mer, flanks averaged, mean of replicates
Direction: higher = stronger binding
Quantity: E-score
TTCGGCAA: -0.00407
CATTATTA: 0.422
CCCTCAGG: -0.251
CAATGTCG: 0.00829
ATCTGACC: 0.0372
ACGATCAT: 0.133
TGTCGACA: 0.146
CGCCACTC: -0.162
CACGCGTC: -0.0178
CTATGTTC: 0.101
CGTTCTTA: -0.0141
CAATTGGC: 0.119
ATTTTTGA: 0.226
GACAGCCC: -0.253
CTTTGCAA: 0.0184
CATTTACA: 0.224
AATCATTA: 0.295
GTAGCAAC: 0.0674
CTGTAGAC: -0.00439
CCACGGCC: -0.403

Series 4
Target: RING finger protein unkempt homolog, zinc fingers 1-6, GST-SBP tag (UNK, Homo sapiens, UniProt Q9C0B0, residues 30-357)
Method: RNA Bind-n-Seq
Form: RNA
Sample: in vitro
Concentration: not given
Setting: RNA with constant flanks, human and mouse sites, ends assumed
Reference: input RNA pool
Direction: higher = stronger binding
Quantity: bound/input enrichment
Shared flanks, not repeated: GGGAGUUCUACAGUCCGACGAUC … CAACAGAGGAUUGAGCAUCA
Construct (chain): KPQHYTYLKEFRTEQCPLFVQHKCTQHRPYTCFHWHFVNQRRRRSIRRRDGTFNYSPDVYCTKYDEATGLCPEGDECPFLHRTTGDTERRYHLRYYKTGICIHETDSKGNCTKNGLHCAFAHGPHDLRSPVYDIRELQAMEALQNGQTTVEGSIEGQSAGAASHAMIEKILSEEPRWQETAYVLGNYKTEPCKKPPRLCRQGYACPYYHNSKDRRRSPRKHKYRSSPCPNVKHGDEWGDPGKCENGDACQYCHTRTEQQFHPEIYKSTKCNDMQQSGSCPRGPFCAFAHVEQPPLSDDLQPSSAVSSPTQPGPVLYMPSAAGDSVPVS
AAUUCAUAAUCACGCUAAUUGUAAUCUGGAGACGUGUAACAUUGUGUAGCCUUUUGUAUAAAUAGACAGAUAGAAAUGGUCCGAUUAGUUUCCUUUUUAAUAUGCUUAAAAUAAGCAGGU: 6.72 ratio
UAACUUAUUUUUCGUUAAAGUUUGACUGAAACACGCUUCUACCAAAUACAGUAUAAAUAAUUAGGUAGUCUUAAUGCCUUUCCUAUUUUUUUUUCCUUUUCACACAAAAUGUACACAAAG: 10.5 ratio
CGAUUGGAGAAGGUGUAUCUGAAGAACAGUGUCAUGGAGCUGAUUGCAAAUGGAACAUUGAACAUUUUGGAAGAGGAGAACCAUAUUAAAGAUGCUCUGUCUCGAAUUGUAGUGGAAAUG: 0.22 ratio
CCAGAGCUCAAAUACCCAAAAGGAGCUGGAAGAGUCGCGUUUUCUAAUCAACAGAGUUACAUAGCUGCUAUCAGUGCCCGCUUUGUUCAGCUGCAGCAUGGAGAGAUAGAUAAACGGGUG: 0.269 ratio
ACCUUGGCCGUGGGACUCAUCAACAUGGCAGAGGUGAUGCAGCAUCCUAAUGAAGGCGCACUGGUGCUUGGCCUACACAGCAACGUGAAGGAUGUCUCUGUGCCUGUGGCAGAAAUAAAG: 0.173 ratio
AACAGGAUCAGUUAACUAUUGCAUUUAUAUGUACCGUAGGCUUUGUAUUCAAAAAUUAUCUAUAGCUAAGUACACAAUAAGCAAAAACAAAAAGAAAAGAAAAUUUUUGUAGUAGCGUUU: 1.17 ratio
AUGGGCCGAAUGAAGCUGUUGCAACAGAUGUCCCGGGUCUGGAAAACAGAUGGCUUAUCGAGUUGUUCUUACAGAUUACUCUCUGUGGAGCACAACCCUUUAUAUGCCAACAUCACAGUG: 0.0942 ratio
UGAGUGAGCAGAUGAUUGAAUAUUGAUGUCAGCAUCCUUGAACACACUCAGAUGAGCAACAUAGAGCUUCUGCUUCUAUUUAAAAUGAUGCUGGGUUUGAUUGUGGUCCGAAGCUUUGAA: 0.0902 ratio
AACAGUUUUCAGAAGUUCUUAAGGCAAGAGUGAAUUUCUGUGGAUUUUACUGGUCCCAGCUUUAGGUUCUUUACGACACUAACAGGACUGCAUAGAGGCUUUUUCAGCAUUACUGUAUUG: 0.368 ratio
UUGGCCAUCAAGCCAUUUUACCAAAAUAAAGAUAUCACCAAGGAAGAAUAUAAAGAAAUUGUACGGAAAGCAGUAGAUAAAGUUUGUCAUAGUAAGAGUGGAGAAGUAAAUUCUACUAAA: 1.15 ratio
CUCAGCAAUGUGUCUUCCACGGGCAGCAUCGACAUGGUGGACUCACCACAGCUUGCCACACUAGCCGAUGAAGUGUCUGCUUCCUUGGCCAAGCAGGGUUUGUGAUCAGGCUCCCAGGGC: 0.0946 ratio

Series 5
Target: Prothrombin, mature alpha-thrombin (F2, Homo sapiens, UniProt P00734)
Method: aptamer microarray, sandwich
Form: DNA with 2'F-ANA
Sample: in vitro
Concentration: 200 nM
Setting: whole 15-mer aptamer, many near background
Together with: Cy3 exosite-II aptamer, 400 nM
Direction: higher = stronger binding
Quantity: mean fluorescence intensity
Oligonucleotide: GGTTGGTGTGGTTGG
2'F-ANA at 1 7 9 11 15: 149 a.u.
2'F-ANA at 3 4 6 7 8 10 11 12: 302 a.u.
2'F-ANA at 4 5 6 7 8 9 10 11 13: 49 a.u.
2'F-ANA at 2 9 12 15: 679 a.u.
2'F-ANA at 1 2 6 12 13 14: 60.1 a.u.
2'F-ANA at 1 2 7 9 11 12 13 14 15: 60.7 a.u.
2'F-ANA at 1 2 3 8 9 12 13 14: 89.7 a.u.
2'F-ANA at 1 2 3 4 7 10 12: 91.4 a.u.
2'F-ANA at 1 3 6 15: 312 a.u.
2'F-ANA at 1 3 8 9 11 12 14 15: 172 a.u.
2'F-ANA at 4 5 6 8 10 11 12: 54.4 a.u.
2'F-ANA at 1 5 7 15: 56.9 a.u.
2'F-ANA at 4 6 7 9 14 15: 73 a.u.
2'F-ANA at 2 3 4 7 8 10 12 13 15: 300 a.u.
2'F-ANA at 1 4 6 8 10 13 14 15: 49.7 a.u.
2'F-ANA at 2 3 4 5 7 8 9 14: 52.6 a.u.
2'F-ANA at 1 3 8 9 10 11 12: 101 a.u.
2'F-ANA at 1 4 8 15: 229 a.u.
2'F-ANA at 1 3 4 5 6 12 14 15: 47.5 a.u.
2'F-ANA at 1 7 8 9 10 11 12 13 15: 66.7 a.u.
2'F-ANA at 1 2 8 15: 252 a.u.
